# Measurements of several laboratories.
# Parts stem from different laboratories: compare values within a part only. Positions count from the first letter of the parent shown.

# Series 1 — method: DHFR PCA, dose-response; matrix: yeast; notes: Hill fit, mean, not affinity; added: (+)-ABA, dose series; direction: lower = more sensitive
# Target: ABI1, truncated, D143A, DHFR fusion (Arabidopsis thaliana, UniProt P49597)
# Starting sequence: PYL1, truncated, DHFR fusion (Arabidopsis thaliana, UniProt Q8VZS8); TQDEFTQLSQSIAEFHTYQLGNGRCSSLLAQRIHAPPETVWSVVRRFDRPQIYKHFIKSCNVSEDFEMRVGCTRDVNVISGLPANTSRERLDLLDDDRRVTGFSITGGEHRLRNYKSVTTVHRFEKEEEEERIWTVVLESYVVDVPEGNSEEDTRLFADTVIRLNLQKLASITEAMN
Variant,ABA EC50
F15Q,55500 nM
S150G,21100 nM
L8K,67000 nM
N177V,1060 nM
E14Q,4240 nM
K126R,2290 nM
W134L,1640 nM
R155Y,134000 nM
A175H,1860 nM
E131D,1140 nM
R32H,2490 nM
F15I,39200 nM
G108S,451000 nM
T1N,2360 nM
T73H,2740 nM

# Series 2 — method: protein binding microarray; molecule type: double-stranded DNA, one strand shown; matrix: in vitro; concentration: not given; reference: not given; direction: higher = stronger binding
# Target: Histone acetyltransferase KAT6A, both winged helices, GST fusion (KAT6A, Homo sapiens, UniProt Q92794, residues 1-181)
# Notes: 8-mer, flanks averaged, mean of 2 arrays, mostly near background
# Target sequence (chain): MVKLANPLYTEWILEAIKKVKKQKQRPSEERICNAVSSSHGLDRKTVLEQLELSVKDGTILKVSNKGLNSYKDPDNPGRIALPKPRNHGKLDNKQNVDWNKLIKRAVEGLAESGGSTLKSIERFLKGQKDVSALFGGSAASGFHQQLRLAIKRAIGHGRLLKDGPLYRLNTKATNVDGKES
Oligonucleotide,E-score
ACGCAACG,0.175
CATGTGAA,-0.0315
AGCTATTC,-0.106
CGAGGGCG,0.182
AACCACAG,-0.193
GGTGTTGA,-0.0546
ACACATCA,-0.105
GAGGTAGA,-0.173
GGCCTTTA,0.0488
AACGATCA,-0.0162
ACACTATG,-0.144
ATTCGGAC,0.152
AAGTGAAA,-0.0262
GAGTGATA,0.0486
CATGCTGA,-0.18
AACTCGCG,0.257
ATCCCCAA,-0.254
ATGGGGCG,-0.11
ACGGGCTA,0.185
GTAGGGAC,0.00619
CTTGGATC,-0.147
ACAGGCAA,-0.162

# Series 3 — method: RNA Bind-n-Seq; molecule type: RNA; matrix: in vitro; concentration: 200 nM; notes: whole 134-nt RNA, ends assumed; added: 150 mM LiCl; reference: input library; direction: higher = stronger binding; each molecule: 7-deaza-guanosine replaces G
# Target: Fragile X messenger ribonucleoprotein 1, C-terminal low-complexity region (Fmr1, Mus musculus, UniProt P35922)
# Constant ends, left off below: GGGAGUUCUACAGUCCGACGAUC … UGGAAUUCUCGGGUGUCAAGG
Oligonucleotide,log2 enrichment
GCAGGAAGUAAAAACAAAUGGAAAUGCUUCGGAUAGUGGCAGGGGUGGGGGUUGCUAAGGAAAGGGUGGAAUGGGAGUGGGUAAAGAGUU,1.42
UCCUGUGCUACACAUCGUAUGUACCGAAUCGGGGAAAGGGGAAAAAGGGGUUUUUGGGGAAAGUAUUAUGUUACGCCGUUCGGAUCUGCA,0.334
AAGUCCUGUGCUACACAUCGUAUGUACCGAAUCGGUUUUUUUGGAAAAAAAGGUGGAAAGUAUUAUGUUACGCCGUUCGGAUCUGCACUU,-3.37
CCUGUGCUACACAUCGUAUGUACCGAAUCGGUUUUUUGGGGUUUUUUGGGGUUUUUUGGGGAAAGUAUUAUGUUACGCCGUUCGGAUCUG,-0.345
UUACAGAUGUAGAGCUAAAACGACUGAAGGAUGCUUUCAAGAGGACCUGUGGACUCUCAUAUUACAUGGGCCAGCACUGCUUCAUCCGGG,1.59
GUCCUGUGCUACACAUCGUAUGUACCGAAUCGGGUUUGGGAAAAAAAGGGUUUUUGGGAAAGUAUUAUGUUACGCCGUUCGGAUCUGCAC,-1.91
AACAUGCAGGUGGGCAUCUUUGGGAAGUGGGGCAAGGGGGGGAUAGGGAGGGGGGUAACACUUUGGGAACAGGUGGUCCCAGGUCGUUUC,1.35
GCAGGAAGUAAAAACAAAUGGAAAUGCUUCGGAUAGUGGCAGGGGUGGGGGUUGCUAAGGAAAGGGUGGGAUGGGAGUGGAAAAAGAGUU,1.37
CUCAAGUCCUGUGCUACACAUCGUAUGUACCGAAUCGGGCCGGGGCCGGCCGGGAAAGUAUUAUGUUACGCCGUUCGGAUCUGCACUUCC,0.371
AAGUCCUGUGCUACACAUCGUAUGUACCGAAUCGGUUUUUUUGGUUUUUUUGGUGGAAAGUAUUAUGUUACGCCGUUCGGAUCUGCACUU,-2.43
GUCCUGUGCUACACAUCGUAUGUACCGAAUCGGGGUUUUUGGGGUUUGGGGAAAGGGGAAAGUAUUAUGUUACGCCGUUCGGAUCUGCAC,-1.03

# Series 4 — method: protein-binding microarray; molecule type: hairpin DNA; matrix: in vitro; concentration: not given; reference: not given; direction: higher = stronger binding
# Target: Cyclic AMP-dependent transcription factor ATF-1, full length (ATF1, Homo sapiens, UniProt P18846, residues 1-271)
# Notes: whole hairpin DNA, median over replicate spots
# Construct (chain): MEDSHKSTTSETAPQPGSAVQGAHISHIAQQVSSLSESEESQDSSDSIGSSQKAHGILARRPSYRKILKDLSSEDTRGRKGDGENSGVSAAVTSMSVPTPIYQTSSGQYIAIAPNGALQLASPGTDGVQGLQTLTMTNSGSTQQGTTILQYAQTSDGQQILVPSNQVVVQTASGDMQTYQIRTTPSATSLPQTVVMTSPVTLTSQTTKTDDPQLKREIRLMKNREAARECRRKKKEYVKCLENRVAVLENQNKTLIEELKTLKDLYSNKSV
Oligonucleotide,median fluorescence
GAGGCCGGCTGACGTAAGCCTCCTGGCTTACGTCAGCCGGCCTCACACTC,8190 a.u.
GAGGCCGCGGACGTCGTGCCTCCTGGCACGACGTCCGCGGCCTCACACTC (5mC at 15 29 35),4060 a.u.
GAGGCCGACGATGTCGTGCCTCCTGGCACGACATCGTCGGCCTCACACTC (5mC at 9 15 29 35),3050 a.u.
GAGGCCTGCTGACGTCAGCCTCCTGGCTGACGTCAGCAGGCCTCACACTC,11400 a.u.
GAGGCCTGATGACGTCAGCCTCCTGGCTGACGTCATCAGGCCTCACACTC,15300 a.u.
GAGGCCCGCTGACGTCAGCCTCCTGGCTGACGTCAGCGGGCCTCACACTC (5mC at 7 37),10600 a.u.
GAGGCCGATGACGTCGTGCCTCCTGGCACGACGTCATCGGCCTCACACTC (5mC at 15 29 35),4340 a.u.
GAGGCCGGCTTACGTCAGCCTCCTGGCTGACGTAAGCCGGCCTCACACTC,6700 a.u.
GAGGCCGGCGACGTCGTGCCTCCTGGCACGACGTCGCCGGCCTCACACTC (5mC at 9 15 29 35 37),4610 a.u.
GAGGCCGCCGACGTCGTGCCTCCTGGCACGACGTCGGCGGCCTCACACTC (5mC at 9 15 29 35),4490 a.u.
GAGGCCGACGACGTCGCGCCTCCTGGCGCGACGTCGTCGGCCTCACACTC (5mC at 9 15 17 29 35),4600 a.u.
GAGGCCGGTTGACGTCAGCCTCCTGGCTGACGTCAACCGGCCTCACACTC,8330 a.u.

# Series 5 — method: aptamer microarray, sandwich; molecule type: DNA with 2'F-ANA; matrix: in vitro; concentration: 200 nM; added: Cy3 exosite-II aptamer, 400 nM; direction: higher = stronger binding; oligonucleotide: GGTTGGTGTGGTTGG
# Target: Prothrombin, mature alpha-thrombin (F2, Homo sapiens, UniProt P00734)
# Notes: whole 15-mer aptamer, many near background
Modification,mean fluorescence intensity
2'F-ANA at 1 2 3 5 7 8 10 11 15,58.2 a.u.
2'F-ANA at 1 2 4 5 6 10 11 12 13 14,50.7 a.u.
2'F-ANA at 1 5 7 9 13 14,42.4 a.u.
2'F-ANA at 1 2 3 5 6 7 11 12 14,45.6 a.u.
2'F-ANA at 1 4 5 6 8 9 11 14 15,92.6 a.u.
2'F-ANA at 1 2 4 5 7 11 12 13,64.9 a.u.
2'F-ANA at 1 2 5 6 8 10 12 14 15,54 a.u.
2'F-ANA at 3 5 6 7 8 9 10 11 15,56.8 a.u.
2'F-ANA at 2 3 8 9 11 12 14,457 a.u.
2'F-ANA at 3 5 6 7 9 10 11 12 13 15,58.2 a.u.
2'F-ANA at 1 4 6 7 8 11 14,50.5 a.u.
2'F-ANA at 5 6 9 11 12 13 15,83.3 a.u.
2'F-ANA at 1 3 7 10 12 13 14,61.2 a.u.
2'F-ANA at 1 2 3 5 9 13,50.4 a.u.
2'F-ANA at 2 5 6 7 8 9 12 13 14 15,58.9 a.u.
2'F-ANA at 1 2 5 6 9 14 15,46.4 a.u.
2'F-ANA at 2 4 6 9 10 12 15,105 a.u.
2'F-ANA at 1 2 5 10 11 13 15,47.7 a.u.
2'F-ANA at 2 3 6 8 9 12,1120 a.u.
2'F-ANA at 1 2 4 5 6 8 9 13 14 15,51.2 a.u.

# Series 6 — target: CCNB1, cyclin fold, Cln2 fusion (human); method: yeast growth competition, sequencing; matrix: yeast; notes: weak parent motif; reference: not given; direction: higher = stronger binding
# Starting sequence: CDC6 docking peptide (human); TLKGRRLVFDNQL
Variant,normalised enrichment score
R6E,-0.811
T1Y,0.146
G4W,0.129
K3E,0.108
F9I,0.443
F9R,0.446
R6K,-0.202
N11G,0.222
L2N,-0.202
V8D,0.452
R6S,0.123
R6I,-0.00686
L13W,1.35
F9E,0.435
L7S,0.0155
R5A,0.376

# A few entries again (series 5):
Modification,mean fluorescence intensity
2'F-ANA at 1 2 3 5 9 13,50.4 a.u.
2'F-ANA at 2 5 6 7 8 9 12 13 14 15,58.9 a.u.
2'F-ANA at 1 2 5 6 9 14 15,46.4 a.u.
2'F-ANA at 2 4 6 9 10 12 15,105 a.u.
2'F-ANA at 1 2 5 10 11 13 15,47.7 a.u.
2'F-ANA at 2 3 6 8 9 12,1120 a.u.
